Published values gathered from unrelated publications.
Lines come from different studies, so protocols differ. Values joined by “and” are separate records of one study, mostly repeats; a detail may differ. Numbers after ± are the reported error.

| Structure (SMILES) | assay | system | setting | scale | quantity | value |
| --- | --- | --- | --- | --- | --- | --- |
| CC(C)(C(=O)N1CCOc2c(C#N)cncc2C1)C(F)F | measured: Insomnia | human | oral, 20 mg once daily, 14 days, multiple ascending dose |  | subjects with adverse event | 0% |
| CNC(=O)c1ccc(-c2cnc3ncc(Cc4ccc5ncccc5c4)n3n2)cc1F | measured: Dyspnea | gastric cancer patients | oral, 600 mg twice daily, expansion cohort, grade 3-4 |  | patients with adverse event | 0% |
| O=C(O)CSc1nnc(Br)n1-c1ccc(C2CC2)c2ccccc12 |  | KM mouse, chronic hyperuricaemia model | dose not given, day 10 |  | body weight | 33.1 g and 26.4 g and 25.6 g and 31 g and 30.3 g and 29.9 g |
| O=C1CCC(N2Cc3cc(CO)c(F)cc3C2=O)C(=O)N1 (centres unmarked) |  | male cynomolgus monkey, plasma | oral, 0.3 mg/kg of parent drug |  | half-life | 84 ± 6 min |
| Cc1ccc(C(=O)N(CCCN)C(c2nc3snc(C)c3c(=O)n2Cc2ccccc2)C(C)C)cc1 (centres unmarked) | measured: Dysphagia | human patients | intravenous, 16 mg/day, CTCAE grade ≥3 |  | patients with adverse events | 0% |
| O=C1CC[C@H](N2Cc3cc(N4CCN(CC5CCN(c6ccc([C@@H]7c8ccc(O)cc8CC[C@@H]7c7ccccc7)cc6)CC5)CC4)ccc3C2=O)C(=O)N1 |  | human | oral, 200 mg, together with: dabigatran etexilate 75 mg |  | participants with TEAEs | 25% |
| NC(=O)N1c2ccccc2C=Cc2ccccc21 |  | healthy human subjects, plasma | oral, dose not given, day 20, twice daily, alone |  | AUC(0-12h) | 80100 ng·h/mL |
| C[C@@H](Oc1ccc(S(C)(=O)=O)cc1C(=O)N1C[C@@H]2C[C@]2(c2cc(C(F)(F)F)on2)C1)C(F)(F)F |  | human, urine | oral, 25 mg | baseline: dose | urinary excretion | 8.7% |
| C1CCCC1.C1CCCC1.[Cl][W][Cl] | cyclic voltammetry | 100 mM Tris buffer | pH 7.4 | baseline: Ag/AgCl | oxidation peak potential | 635 mV |
| Cn1cc(Nc2nccc(-c3ccc4c(c3)CN(C3COC3)CC[C@H]4NC(=O)c3cn(C(C)(C)C)nn3)n2)cn1 |  | human, whole blood | 300 mg twice daily, day 14 | baseline: pre-dose baseline | naive B cell count change | 50.2% |
| O=C1CC[C@H](N2Cc3cc(N4CCN(CC5CCN(c6ccc([C@@H]7c8ccc(O)cc8CC[C@@H]7c7ccccc7)cc6)CC5)CC4)ccc3C2=O)C(=O)N1 | radiolabelled compound | female SD rats | oral, 20 mg/kg, 0-168 h | baseline: dose | faecal excretion | 50.5% |
| COc1ncc(-c2nc3c(n2C(C)C)[C@H](c2ccc(Cl)cc2)N(c2cc(Cl)cn(C)c2=O)C3=O)c(OC)n1 | LC-MS/MS, noncompartmental | human, plasma | oral, 120 mg, C1D8, high-dose, geometric mean |  | Cmax | 857 ng/mL |
| COc1ccc2c(=O)n(C)c(-c3ccccc3)nc2c1 |  | Sprague-Dawley rat, male, spleen | oral, 30 mg/kg, 0.25 h | baseline: spleen over plasma | tissue/plasma ratio | 5.99 |
| CN1C[C@H](COc2nccc3c(NCc4ccco4)cc(Cl)nc23)OC1=O |  | rabbit NZW female, isolated Langendorff heart | 10 µM, 15 min |  | LV dP/dt max | 1190 mmHg/s |
| CC1=C(/C=C/C(C)=C/C=C/C(C)=C\C(=O)O)C(C)(C)CCC1 |  | FaSSIF | literature solubility over dose |  | dose-adjusted solubility | 0.000638 mL⁻¹ |
| O=C1Nc2ccc(Cl)cc2[C@@](C#CC2CC2)(C(F)(F)F)O1 |  | human, plasma | oral, 600 mg, day 30, mean |  | trough plasma concentration | 2790 ng/mL |
| Cc1cc(Nc2ncnc3ccc(NC4=NC(C)(C)CO4)cc23)ccc1Oc1ccn2ncnc2c1 |  | human, plasma | oral, 300 mg, day 1, single dose alone |  | AUC(0-last), mean | 2230 ng·h/mL |

Repeated from above:
| Structure (SMILES) | assay | system | setting | scale | quantity | value |
| --- | --- | --- | --- | --- | --- | --- |
| Cn1cc(Nc2nccc(-c3ccc4c(c3)CN(C3COC3)CC[C@H]4NC(=O)c3cn(C(C)(C)C)nn3)n2)cn1 |  | human, whole blood | 300 mg twice daily, day 14 | baseline: pre-dose baseline | naive B cell count change | 50.2% |
| O=C1CC[C@H](N2Cc3cc(N4CCN(CC5CCN(c6ccc([C@@H]7c8ccc(O)cc8CC[C@@H]7c7ccccc7)cc6)CC5)CC4)ccc3C2=O)C(=O)N1 | radiolabelled compound | female SD rats | oral, 20 mg/kg, 0-168 h | baseline: dose | faecal excretion | 50.5% |
